# Experimental data of several laboratories.
# Parts stem from different laboratories: compare values within a part only.

# Study 1 — technique: protein binding microarray; molecule type: double-stranded DNA, one strand shown; medium: in vitro; concentration: not given; relative to: not given; direction: higher = stronger binding
# Target: Histone acetyltransferase KAT6A, winged helix 2, GST fusion (KAT6A, Homo sapiens, UniProt Q92794, residues 85-181)
# Setting: 8-mer, flanks averaged, mean of 2 arrays, mostly near background
# Residues (chain): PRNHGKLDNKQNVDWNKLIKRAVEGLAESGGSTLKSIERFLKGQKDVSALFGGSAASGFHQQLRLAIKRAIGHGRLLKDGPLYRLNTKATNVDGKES
Sequence,E-score
CCAGTAGC,0.0967
GACAGACC,-0.06
CCGTTTAC,0.0776
GGATTACA,-0.144
CTTCCCTC,-0.0463
AACTAGAT,0.0383
CGCAGTAA,0.118
ACAGCATA,0.067
AAATGTCT,-0.12
ACGCAGTC,0.0134
CCTTAGGA,0.0207
CACCTAAG,-0.109
AGGCTGAG,-0.127
CCATTCAG,-0.0899
GGACTTAA,-0.12
CAGTAGAA,-0.0306
CCAATCCG,0.106
ATGCATGC,0.109
GAGTTGGC,0.0983
CCCTCACC,0.128
GTTATACA,-0.138
GAGCGATA,-0.0295
GGGTTTTA,-0.106
ACTAGGAT,-0.0859
TCAGCGAA,-0.00091

# Study 2 — technique: protein-binding microarray; molecule type: double-stranded DNA, one strand shown; medium: in vitro; concentration: 2200 nM top; setting: 60-bp whole probe; added: salmon DNA 0.4 mg/ml; relative to: random background probes; direction: higher = stronger binding; shared flanks, not repeated: GCCTAGCAC … GTCTTGATTCGCTTGACGCTGCTG
# Target: Interferon regulatory factor 7, full length, phosphomimetic (IRF7, Homo sapiens, UniProt Q92985, residues 1-503, S471D/S472D/S475D/S476D/S477D/S483D/S484D/S487D)
# Target sequence (chain): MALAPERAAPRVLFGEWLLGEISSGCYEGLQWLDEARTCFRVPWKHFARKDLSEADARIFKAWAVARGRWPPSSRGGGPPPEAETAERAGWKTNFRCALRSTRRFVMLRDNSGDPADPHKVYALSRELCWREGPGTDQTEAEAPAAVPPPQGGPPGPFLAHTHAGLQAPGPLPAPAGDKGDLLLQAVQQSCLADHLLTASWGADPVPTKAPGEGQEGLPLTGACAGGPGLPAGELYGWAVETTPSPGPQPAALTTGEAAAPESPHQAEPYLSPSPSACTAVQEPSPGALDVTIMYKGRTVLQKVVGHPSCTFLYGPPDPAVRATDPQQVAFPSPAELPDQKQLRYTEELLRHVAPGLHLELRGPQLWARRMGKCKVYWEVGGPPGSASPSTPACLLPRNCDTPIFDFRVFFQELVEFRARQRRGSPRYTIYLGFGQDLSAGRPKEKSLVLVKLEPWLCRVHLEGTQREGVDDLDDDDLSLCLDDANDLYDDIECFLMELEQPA
Sequence,fitted relative affinity
TTAGATTTCGGGACTGGGTTAGTGCTA,0.933 z-score
GACGATATCGGGTTTCTAGACGTGCTA,0.677 z-score
GACGGACTGGGTATCGGAACGTGCTAG,-0.708 z-score
TTATGTTTCGACACTGGGTTAGTGCTA,2.56 z-score
TCAGCTGTCCTTTGCAAACTGTGCTAG,0.782 z-score
CTAGTTGTGATTCTTTCGATGTGCTAG,2.25 z-score
TTAGACATCGGGACTGGATTAGTGCTA,-0.388 z-score
TACGGTCTCCTTTTCCTGACGTGCTAG,1.98 z-score
GACGGTATCCTTCTCTTGACGTGCTAG,1.13 z-score
CTAATTTTTACTTTCTGAATGTGCTAG,3.98 z-score
GACGATTTCATTCTCGAGACGTGCTAG,1.37 z-score
ACCCCAAAGAGGGGCAGTGTGTGCTAG,-0.484 z-score
GACGGAATCGGGTTTCGGGACGTGCTA,1.91 z-score
TTAGGTATCCTACTGCATTAGTGCTAG,0.483 z-score
CTGAGAATGGGGTTTGCAGCCGTGCTA,-0.645 z-score
GACGGTTCCCTATTCCTGACGTGCTAG,2.19 z-score
TCAAGCATGGATCTGGGACTGTGCTAG,-0.215 z-score
GACGGTATCGGGTATCGGGATGTGCTA,0.15 z-score
GACGGACTGCTTATACTGACGTGCTAG,0.24 z-score
TTAGATCTCAGTCTCCATTAGTGCTAG,0.631 z-score
ATTTTAATCACATATACACTGGTGCTA,0.654 z-score

# Study 3 — technique: RNA Bind-n-Seq; molecule type: RNA; medium: in vitro; concentration: 365 nM; relative to: no-protein control; direction: higher = stronger binding
# Target: RNA binding protein fox-1 homolog 2, RRM domain, GST-SBP tag (RBFOX2, Homo sapiens, UniProt O43251-10, residues 100-194)
# Setting: natural RNA segment, single round, ends assumed
# Construct (chain): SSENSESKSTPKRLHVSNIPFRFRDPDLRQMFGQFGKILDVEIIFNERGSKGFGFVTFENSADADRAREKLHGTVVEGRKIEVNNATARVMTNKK
Sequence,RBNS enrichment (R)
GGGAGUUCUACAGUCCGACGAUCGUAAAUGUUUAUAUAAAUACCAAAUUGCAGCAUCCCCAAAAUGAAUAAAGCCUUUUUACUUGUGGGUGCAAUCGAUUUUUUUUCUUUCUCCUUUCUUUCAAGUGUCGUGAUGGAAUUCUCGGGUGCCAA,0.405
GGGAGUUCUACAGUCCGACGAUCAGAUAACAAAACACAUUAACACAUUCUUACUGGAUAAUCCAAUUUGCCAAAACAUUUGGGCAUUGUGCCCACCACCUGCCCACACAUAGGAAGUCCACUUCAGUAAGUGCUGGAAUUCUCGGGUGCCAA,0.735
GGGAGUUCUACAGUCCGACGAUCGCCAAGGACUUCAAAGCUUGUUGAUCACUGCACUCUGGAUAAAACCCUUGGCUUCCUGUUCAAAUAGCCUUUCCAGGUUUAACUUCUUUAAGGAGCCUCAAGUGAAAAAAUGGAAUUCUCGGGUGCCAA,0.838
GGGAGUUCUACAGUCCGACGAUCGGCCUCCAGACCCCCUCAAUAGACACUGACUAAAGUCAGGCUGGAGUCAUGAGGGUAGUGGGCUAAGUCGAGGGUCCAGCCUCUUCUGCCAGGAAGCCCUUCUUGCUUUUUGGAAUUCUCGGGUGCCAA,0.362
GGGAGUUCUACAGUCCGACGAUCUCUUAUUGCUUAUUUGGUCGUAAUGAAAAUAAUUUGUAAAAUGUCCUUUAAAAGUUUAAUGAUACUUCUGAUGUUUCGGAACAGUCAUUUCACCUACUAUUUCUGAAUAUUGGAAUUCUCGGGUGCCAA,0.378
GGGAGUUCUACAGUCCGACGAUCUCUUAGUUCUAAAGAAUCUUGGGUUAUUUUGUAGCGGUGCCAGUAUUUCAGUAGAUGGGAUUUCAGCCAAGUAGGUUCCCCUGUAACCUCCUACAAAGCAAUAUUCCAAAUGGAAUUCUCGGGUGCCAA,0.848
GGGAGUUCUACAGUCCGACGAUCAGAAUCUAGUUUAAUUGUUUCAGGUAGAAAGUAUUCUUUUGAGUUUCCAUUUUGAAUGUGUUUGGACUAAAACAAUAAACUACUGAUGUCUGCAGCAUUUAUCUAUGUCCUGGAAUUCUCGGGUGCCAA,1.91
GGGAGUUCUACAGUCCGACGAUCGCAGGUAAUUCUGAUGCAUGCUCAAGUUUGAGAACCACUGGCCUAGAAGAAAUGAACUACUGCAACUUAUGAGGAAUCAUGAGAUCCAGCUCACUUUUGCUCAAUACCUAUGGAAUUCUCGGGUGCCAA,9
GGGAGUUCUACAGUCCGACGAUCAAUCCCUCCUCCCUCUAAACAGUCCCCCAGAAAACAGGCUGGUGGCCAUGUGCUUUGCAUCUUUCUUAUUUGAUUCUUUUAAAGAAGUGUAGGGAGGAAAACCUGUCAUUUGGAAUUCUCGGGUGCCAA,0.362
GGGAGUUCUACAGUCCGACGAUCCUCCCCAGCUUGCGCAGAGACGUGUGCGUCCCACGUCCCUUGCCGUGCUCUCCCUUUUGGUAGGUGUUACUUUAAGAACUGCAGUCAGACUUGCUGUUGCCUGACAAUUAUGGAAUUCUCGGGUGCCAA,0.506
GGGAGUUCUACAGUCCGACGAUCUUCUCAGGACUCAUUGUUCCACCCCCAACCAAUUUGAAUGCCUACAAUAAGUUCAGGAGCUGUGCCAAGCACUUUCCUCUUUUACAGCUGGAGAUCACUGGAAAGGUGUCUGGAAUUCUCGGGUGCCAA,0.343
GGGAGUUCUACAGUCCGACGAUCUUCUGUUUGCCAUUGUUACUUGUACUAUACAUCUGUAUAUAGUGUACGGCAAAAGAGUAUUAAUCCACUAUCUCUAGUGCUUGACUUUAAAUCAGUACAGUACCUGUACCUGGAAUUCUCGGGUGCCAA,0.258

# Study 4 — technique: aptamer microarray, sandwich; molecule type: DNA with 2'F-ANA; medium: in vitro; concentration: 200 nM; added: Cy3 exosite-II aptamer, 400 nM; direction: higher = stronger binding; sequence: GGTTGGTGTGGTTGG
# Target: Prothrombin, mature alpha-thrombin (F2, Homo sapiens, UniProt P00734)
# Setting: whole 15-mer aptamer, many near background
Modification,mean fluorescence intensity [a.u.]
2'F-ANA at 1 5 11 12 14,48.1
2'F-ANA at 4 8 10 15,81
2'F-ANA at 1 2 3 6 7 8 9 11 12 13 15,273
2'F-ANA at 4 6 8 10 12 13 14,151
2'F-ANA at 1 2 3 4 7 9 13 15,104
2'F-ANA at 1 5 6 9 11 12 13 14 15,58.8
2'F-ANA at 3 5 9 10 14 15,49.1
2'F-ANA at 2 3 4 6 8 10 13 15,177
2'F-ANA at 1 2 4 5 7 8 11 12 13 14 15,46
2'F-ANA at 2 4 9 10 15,93
2'F-ANA at 1 2 3 4 5 6 7 8 9 11,57.4
2'F-ANA at 1 3 5 8 9 11 12 14 15,47.1
2'F-ANA at 3 6 8 9 12 15,1130
2'F-ANA at 1 2 4 5 8 9 10 11 12 14 15,47.2
2'F-ANA at 3 4 6 7 9 11 13 14,233
2'F-ANA at 1 2 4 5 6 7 8 10,48.1

# Study 5 — technique: universal PBM; molecule type: double-stranded DNA, one strand shown; medium: in vitro; concentration: not given; direction: higher = stronger binding
# Target: Sal-like protein 4, full length isoform B (SALL4, Homo sapiens, UniProt Q9UJQ4-2, residues 1-616)
# Setting: 8-mer, flanks averaged, mean of replicates
# Construct (chain): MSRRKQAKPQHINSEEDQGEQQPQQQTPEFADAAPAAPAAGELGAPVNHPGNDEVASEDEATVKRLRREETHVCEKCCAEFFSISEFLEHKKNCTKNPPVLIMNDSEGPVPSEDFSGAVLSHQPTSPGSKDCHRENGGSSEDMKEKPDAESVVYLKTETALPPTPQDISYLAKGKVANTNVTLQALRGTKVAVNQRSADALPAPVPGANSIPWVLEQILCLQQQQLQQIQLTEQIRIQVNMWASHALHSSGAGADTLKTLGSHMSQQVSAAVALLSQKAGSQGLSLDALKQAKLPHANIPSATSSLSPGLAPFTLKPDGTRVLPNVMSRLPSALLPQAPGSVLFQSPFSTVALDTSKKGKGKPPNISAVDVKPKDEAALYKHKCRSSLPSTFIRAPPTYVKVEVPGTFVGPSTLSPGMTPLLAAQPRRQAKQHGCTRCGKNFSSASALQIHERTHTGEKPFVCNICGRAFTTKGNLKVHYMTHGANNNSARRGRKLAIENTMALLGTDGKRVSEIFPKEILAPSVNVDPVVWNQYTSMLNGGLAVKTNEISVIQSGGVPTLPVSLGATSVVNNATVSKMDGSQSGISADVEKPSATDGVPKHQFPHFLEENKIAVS
Sequence,E-score
GAGGGATA,-0.0563
AACGGACT,-0.0312
ATCCGGAA,0.071
AGGATAAA,0.255
AAAATTGT,0.391
AAGACCAC,-0.109
ATCCATGA,-0.0286
AGCGTCCG,-0.266
AATGCGCA,0.135
ACGCGCTA,0.0323
GATGTGTA,0.132
CGACGCAG,-0.298
CAGTGACA,0.0219
ACCACTAT,0.0917
ATGGGTAC,0.0672
GATCAGCA,-0.102
ACCGGTCT,-0.292
ACAGATGC,0.103
AGCTGTAA,0.0713
GGAAAGTA,0.157
CGTCACTC,-0.137
ACCCTACG,-0.0839
CCATTGTC,0.0316
TAAATTAA,0.328
AATGTGCC,0.0278

# Some of these lines once more (study 2):
Sequence,fitted relative affinity
CTGAGAATGGGGTTTGCAGCCGTGCTA,-0.645 z-score
CTAGTTGTGATTCTTTCGATGTGCTAG,2.25 z-score
TTAGATTTCGGGACTGGGTTAGTGCTA,0.933 z-score
TTAGGTATCCTACTGCATTAGTGCTAG,0.483 z-score
GACGGTATCGGGTATCGGGATGTGCTA,0.15 z-score
TTAGACATCGGGACTGGATTAGTGCTA,-0.388 z-score
TTAGATCTCAGTCTCCATTAGTGCTAG,0.631 z-score
TTATGTTTCGACACTGGGTTAGTGCTA,2.56 z-score
GACGATATCGGGTTTCTAGACGTGCTA,0.677 z-score
GACGATTTCATTCTCGAGACGTGCTAG,1.37 z-score
TACGGTCTCCTTTTCCTGACGTGCTAG,1.98 z-score
CTAATTTTTACTTTCTGAATGTGCTAG,3.98 z-score
ATTTTAATCACATATACACTGGTGCTA,0.654 z-score
TCAAGCATGGATCTGGGACTGTGCTAG,-0.215 z-score
TCAGCTGTCCTTTGCAAACTGTGCTAG,0.782 z-score
GACGGACTGGGTATCGGAACGTGCTAG,-0.708 z-score
